# Measurements from different studies.
# Each line is one published result; not all experiments were run side by side. Numbers after ± are the reported error.
# Sequence of UniProt P49116 (whole entry, looked up): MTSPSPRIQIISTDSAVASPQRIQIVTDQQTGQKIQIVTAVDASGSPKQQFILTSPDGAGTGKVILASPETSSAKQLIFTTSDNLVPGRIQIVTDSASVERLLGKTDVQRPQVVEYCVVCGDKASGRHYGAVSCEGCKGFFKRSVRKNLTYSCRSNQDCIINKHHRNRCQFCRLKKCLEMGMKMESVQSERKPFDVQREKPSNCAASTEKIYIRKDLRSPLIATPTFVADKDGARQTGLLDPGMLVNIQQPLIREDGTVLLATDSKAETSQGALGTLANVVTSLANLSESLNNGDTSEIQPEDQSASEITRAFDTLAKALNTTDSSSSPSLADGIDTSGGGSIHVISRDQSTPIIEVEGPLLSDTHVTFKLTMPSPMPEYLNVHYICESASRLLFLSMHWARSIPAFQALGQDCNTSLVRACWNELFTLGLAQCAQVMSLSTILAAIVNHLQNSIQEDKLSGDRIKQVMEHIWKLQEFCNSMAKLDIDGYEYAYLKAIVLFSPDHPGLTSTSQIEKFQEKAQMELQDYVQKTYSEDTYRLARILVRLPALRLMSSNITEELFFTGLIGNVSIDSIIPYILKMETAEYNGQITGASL
SMILES,tested on,assay,test system,conditions,endpoint,result
COC(=O)C1=CO[C@@H](O[C@@H]2O[C@H](CO)[C@@H](O)[C@H](O)[C@H]2O)[C@@H]2C(CO)=CC[C@H]12,,,"Sprague-Dawley rat, internal jugular vein plasma","oral, 500 mg/kg Eu + 217 mg/kg Pc extract, dosed as combined Eu and Pc extracts",Tmax,30 min
N=C(N)NCCNC(=O)C1(Nc2ccccc2)CCN(Cc2ccccc2)CC1,,,"female Sprague-Dawley rats, plasma","oral, 50 mg/kg",Tmax,12 min
CNC(=O)c1cccc(-c2ccc(O[C@H]3O[C@H](CO)[C@@H](O)[C@H](O)[C@@H]3O)c(C)c2)c1,,,"Sprague-Dawley rat, male, plasma","intravenous, 3 mg/kg",Tmax,4.98 min
C=CC(=O)N1CCC[C@@H](n2nc(-c3ccc(Oc4ccccc4)cc3)c3c(N)ncnc32)C1,,,"male Wistar rat, stomach","oral, 50 mg/kg",Tmax,45 ± 34.2 min
Cc1cccc(CNC(=O)c2cn(CCNC(=O)c3ccccc3S)c3cc4c(cc3c2=O)OC(F)(F)O4)n1,,,"Sprague-Dawley rat, male, plasma","intramuscular, 10 mg/kg of parent drug",Tmax,560 ± 440 min
CN1CCC[C@H](CN2c3ccccc3Sc3ccccc32)C1.Cl,,,"Wistar rat female, lung","oral, 16 mg/kg",Tmax,360 min
CNC(=O)c1cccc(-c2ccc([C@@H](O)[C@H]3O[C@H](CO)[C@@H](O)[C@H](O)[C@@H]3O)c(C)c2)c1,,,"Sprague-Dawley rat, male, plasma","intravenous, 3 mg/kg",Tmax,4.98 min
Cc1cccc(CNC(=O)c2cn(CCNC(=O)c3ccccc3Sc3c([N+](=O)[O-])ncn3C)c3cc4c(cc3c2=O)OC(F)(F)O4)n1,,,"Sprague-Dawley rat, male, whole blood","intramuscular, 3 mg/kg of parent drug",Tmax,4.98 min
Nc1ncn([C@@H]2O[C@H](CO)[C@@H](O)[C@H]2O)c(=O)n1,OCI-Ly1,,,"1 µM, 120 h",viability,135%
CCc1cc(C(=O)NC)c2nccc(N3CCc4c(cc(Cn5ccnc5)cc4-c4cn(C)nc4C(F)(F)F)C3=O)c2c1,,,"Sprague Dawley rat, male, plasma","oral, 100 mg/kg twice daily, day 1",Tmax,720 min
C=C(C)[C@@H](CC=C(C)C)C[C@@]12C[C@@H](CC=C(C)C)C(C)(C)[C@@](CC=C(C)C)(C(=O)C(C(=O)c3ccc(O)c(O)c3)=C1O)C2=O,OCI-Ly1,,,"1 µM, 120 h",viability,24.2%
CSc1ccccc1C(=O)NCCn1cc(C(=O)NCc2cccc(C)n2)c(=O)c2cc3c(cc21)OC(F)(F)O3,,,"Sprague-Dawley rat, male, whole blood","intramuscular, 30 mg/kg of parent drug",Tmax,70.2 ± 26.4 min
CC(C)NC[C@H](O)COc1ccc(CCOCC2CC2)cc1,"Nuclear receptor subfamily 2 group C member 2, ligand-binding domain (Homo sapiens, UniProt P49116)",SPR imaging,,,Kd,0.012 nM

# Repeated from above:
SMILES,tested on,assay,test system,conditions,endpoint,result
CN1CCC[C@H](CN2c3ccccc3Sc3ccccc32)C1.Cl,,,"Wistar rat female, lung","oral, 16 mg/kg",Tmax,360 min
CNC(=O)c1cccc(-c2ccc([C@@H](O)[C@H]3O[C@H](CO)[C@@H](O)[C@H](O)[C@@H]3O)c(C)c2)c1,,,"Sprague-Dawley rat, male, plasma","intravenous, 3 mg/kg",Tmax,4.98 min
